Experimental data of several laboratories.
Every numbered part comes from another study and shows a few of its results, in no order.

Set 1 — action: inhibitor; concentration: 1 µM
SMILES: CO[C@@H]1[C@H](N(C)C(=O)c2ccccc2)C[C@H]2O[C@]1(C)n1c3ccccc3c3c4c(c5c6ccccc6n2c5c31)C(=O)NC4
target | test | inhibition
CDC42BPB (Homo sapiens, UniProt Q9Y5S2) | enzyme activity | 4%
FGFR4 (Homo sapiens, UniProt P22455) | enzyme activity | 0%
Ribosomal protein S6 kinase alpha-4, C-terminal kinase domain (RPS6KA4, Homo sapiens, UniProt O75676) |  | 9%
EPHA3 (Homo sapiens, UniProt P29320) | enzyme activity | 0%
PAK5 (Homo sapiens, UniProt Q9P286) | enzyme activity | 0%
PIM3 (Homo sapiens, UniProt Q86V86) | enzyme activity | 45%

Set 2 — Compound: O=C(Nc1ccccc1)Nc1cccc(Oc2ccc3nccn3n2)c1; method: competitive binding panel; concentration: 1 µM; reference: vehicle
target | conditions | remaining binding
HIPK4 (Homo sapiens, UniProt Q8NE63) |  | 91%
NEK2 (Homo sapiens, UniProt P51955) |  | 100%
CSNK2A2 (Homo sapiens, UniProt P19784) |  | 100%
TSSK1B (Homo sapiens, UniProt Q9BXA7) |  | 100%
MELK (Homo sapiens, UniProt Q14680) |  | 100%
JAK3 (Homo sapiens, UniProt P52333) | JH1 catalytic domain | 100%
PIK3CA (Homo sapiens, UniProt P42336, H1047L) |  | 100%

Set 3 — observed: cell-free assay; method: competition with immobilised ligand; concentration: 1 µM
Compound: CCCCN(CCCC)C(=O)CN1C[C@H](c2cc(OC)c3c(c2)OCO3)[C@@H](C(=O)O)[C@@H]1CC(C)(C)CCC
target | remaining binding [%]
Non-receptor tyrosine-protein kinase TYK2, JH2 (TYK2, Homo sapiens, UniProt P29597) | 85.9
Tyrosine-protein kinase JAK3, JH1 (JAK3, Homo sapiens, UniProt P52333) | 71.3
FLT3 (Homo sapiens, UniProt P36888, K663Q) | 100
FLT3 (Homo sapiens, UniProt P36888, D835V/ITD) | 46.4
Tyrosine-protein kinase ABL1, non-phosphorylated (ABL1, Homo sapiens, UniProt P00519, H396P) | 96.3
PAK5 (Homo sapiens, UniProt Q9P286) | 93.8
RIOK2 (Homo sapiens, UniProt Q9BVS4) | 65.3
MAP4K1 (Homo sapiens, UniProt Q92918) | 90.6
MAP3K12 (Homo sapiens, UniProt Q12852) | 72.1

Set 4 — observed: enzyme activity; action: inhibitor; concentration: 0.5 µM; reference: control
Target: Serine/threonine-protein kinase PAK 5 (PAK5, Homo sapiens, UniProt Q9P286)
Compound | remaining activity
CN(C)c1ccc(C=C2C(=O)Nc3ccccc32)cc1 | 101%
CO[C@H]1C[C@@H]2CC[C@@H](C)[C@@](O)(O2)C(=O)C(=O)N2CCCC[C@H]2C(=O)O[C@H]([C@H](C)C[C@@H]2CC[C@@H](O)[C@H](OC)C2)CC(=O)[C@H](C)/C=C(\C)[C@@H](O)[C@@H](OC)C(=O)[C@H](C)C[C@H](C)/C=C/C=C/C=C/1C | 106%
O=C1NC(=O)C(c2cn(CCCn3ccnc3)c3ccccc23)=C1Nc1ccccc1 | 94.2%
Oc1ccc(-c2nc(-c3ccncc3)c(-c3ccc(F)cc3)[nH]2)cc1 | 107%
Nc1ncnc2n[nH]c(Nc3ccc(F)cc3)c12 | 116%
O=C(Nc1cccc(Nc2cc(Nc3cccc(C(F)(F)F)c3)ncn2)c1)C1CC1 | 97.5%
Cc1cccc(-c2[nH]c(C(C)(C)C)nc2-c2ccc3c(c2)OCO3)n1 | 92.7%
OCC(O)CCON=C1C(c2c(O)[nH]c3ccccc23)=Nc2ccccc21 (stereo not shown) | 81%
COc1ccc(OC)c2c(=S)c3ccccc3[nH]c12 | 82.9%
O=c1c2ccccc2[nH]c(=S)n1CCN1CCC(=C(c2ccc(F)cc2)c2ccc(F)cc2)CC1 | 97.4%
COc1ccc(C(=O)Nc2sc3c(c2C(N)=O)CCCC3)cc1OC | 96.6%
NCCNc1ncc(C(N)=O)c(Nc2cccc(C(F)(F)F)c2)n1 | 57.3%
CCOC(=O)c1c(C)[nH]c(/C=C2\C(=O)Nc3ccccc32)c1C | 83.9%
O=S(=O)(c1cccc2cnccc12)N1CCCNCC1 | 73.1%
O=C(O)c1ccc2c3c1cccc3c(=O)n1c3ccccc3nc21 | 98.7%

Some of these lines once more (set 2):
target | conditions | remaining binding
MELK (Homo sapiens, UniProt Q14680) |  | 100%
JAK3 (Homo sapiens, UniProt P52333) | JH1 catalytic domain | 100%
HIPK4 (Homo sapiens, UniProt Q8NE63) |  | 91%
TSSK1B (Homo sapiens, UniProt Q9BXA7) |  | 100%
